Results of several laboratories.
± marks the error that the study gave.
B1: colicin E1 residues 100–190; sequence looked up; chain EALRHNASRTPSATELAHANNAAMQAEDERLRLAKAEEKARKEAEAAEKAFQEAEQRRKEIEREKAETERQLKLAEAEEKRLAALSEEAKA

Substance | test | test system | conditions | quantity | value
CC(=O)N(O)CCCCCNC(=O)CCC(=O)N(O)CCCCCNC(=O)CCC(=O)N(O)CCCCCNC(=S)Nc1ccc(NC(=S)NCCOCCOCCOCCOCCC(=O)N[C@@H](CCC(=O)NCCOCCOCCOCCOCCC(=O)NCCCC[C@@H]2NC(=O)[C@@H](Cc3ccccc3)NC(=O)[C@H](CC(=O)O)NC(=O)CNC(=O)[C@H](CCCNC(=N)N)NC2=O)C(=O)NCCOCCOCCOCCOCCC(=O)NCCCC[C@@H]2NC(=O)[C@@H](Cc3ccccc3)NC(=O)[C@H](CC(=O)O)NC(=O)CNC(=O)[C@H](CCCNC(=N)N)NC2=O)cc1 [zirconium-89 labelled] |  | athymic nude mice female tumour-bearing, kidneys | intravenous, dose not given, 4 h, together with: unlabelled c(RGDfK) 300 µg | tissue uptake | 16.7 ± 2.74 %ID/g
Cc1ccccc1NC(=O)Nc1ccc(CC(=O)N[C@@H](CCCCNC(=O)/C=C/c2cccnc2)C(=O)N[C@@H](CCCC(=O)O)C(=O)NC2(C(=O)NCCOCCOCCOCCOCC(=O)N[C@@H](CCCCNC(=S)Nc3ccc(C[C@H]4CN(CC(=O)O)CCN(CC(=O)O)CCN4CC(=O)O)cc3)C(N)=O)CCCCC2)cc1 [fluorine-18 labelled] |  | female C57BL/6 mice, B16-F10 tumour, colon | intravenous, 2 h | tissue uptake | 2.8 ± 0.2 %ID/g
CC(C)C[C@@H]1NC(=O)[C@@H]2CSSC[C@@H](C(=O)NCC(N)=O)NC(=O)[C@H](Cc3ccccc3)NC(=O)CNC(=O)[C@H](CC(N)=O)NC(=O)[C@@H]3CCCN3C(=O)CNC(=O)[C@@H]3CSSC[C@H](NC(=O)[C@H](CO)NC(=O)[C@H]([C@@H](C)O)NC(=O)[C@@H]4CCCN4C(=O)[C@H](C)NC(=O)[C@H](Cc4c[nH]c5ccccc45)NC(=O)[C@H](CC(=O)O)NC(=O)CNC(=O)[C@H](CCCNC(=N)N)NC(=O)CNC(=O)[C@H](CCC(N)=O)NC(=O)[C@@H]4CCCN4C(=O)[C@@H](NC(=O)CNC(=O)CN4CCN(CC(=O)O)CCN(CC(=O)O)CCN(CC(=O)O)CC4)CSSC[C@H](NC(=O)CNC(=O)[C@H](C)NC1=O)C(=O)N[C@@H](C(C)C)C(=O)N3)C(=O)N[C@@H](CO)C(=O)N[C@@H](CCC(N)=O)C(=O)N[C@@H](CC(=O)O)C(=O)N[C@@H](CO)C(=O)N[C@@H](CC(=O)O)C(=O)N2 [copper-64 labelled] | microPET | female athymic nude mouse, U-87 MG xenograft, tumour | intravenous, 100 µCi, 24 h | tumour uptake | 1.48 ± 0.51 %ID/g
CSCC[C@H](NC(=O)[C@H](CC(C)C)NC(=O)[C@H](Cc1c[nH]cn1)NC(=O)CNC(=O)[C@@H](NC(=O)[C@H](C)NC(=O)[C@H](Cc1c[nH]c2ccccc12)NC(=O)[C@H](CCC(N)=O)NC(=O)CCC(=O)NCCOCCOCCNC(=O)CN1CCN(CC(=O)O)CCN(CC(=O)O)CCN(CC(=O)O)CC1)C(C)C)C(N)=O |  | ICR SCID mouse (PC-3 tumour), urine and bladder contents | intravenous, 185 kBq, 4 h | excreted dose | 84.8 ± 2.31%
B1 (colicin E1 residues 100–190) | CD 222/208 nm ratio | peptide, 50 mM sodium phosphate |  | helical content | 71 ± 5%
N=C(N)NCCC[C@@H]1NC(=O)[C@H](CCCCNC(=O)CCOCCOCCOCCOCCNC(=O)CC[C@H](NC(=O)c2ccc(NN)nc2)C(=O)NCCOCCOCCOCCOCCC(=O)NCCCC[C@@H]2NC(=O)[C@@H](Cc3ccccc3)NC(=O)[C@H](CC(=O)O)NC(=O)CNC(=O)[C@H](CCCNC(=N)N)NC2=O)NC(=O)[C@@H](Cc2ccccc2)NC(=O)[C@H](CC(=O)O)NC(=O)CNC1=O [technetium-99m labelled] |  | athymic nude mouse, U-87 MG xenograft | 60 min | tumour uptake | 8.3 ± 3.57 %ID/g
CCCCCCCCCCCCCCCC(=O)N[C@H](CSC1CC(=O)N(CCC(=O)NCCOCCOCCOCCOCCOCCOCCOCCOCCOCCOCCOCCOCCOCCOCCOCCOCCOCCOCCOCCOCCOCCOCCOCCOCCC(=O)NC(COCCC(=O)NCCOCCOCCOCCOCCC(=O)NCCCC[C@@H](NC(=O)CNC(=O)[C@@H](CC(C)C)NC(=O)[C@@H](CCC(=O)O)NC(=O)[C@H]2CSSC[C@@H](NC(=O)[C@H]3CCCN3C(=O)[C@@H](Cc3c[nH]cn3)NC(C)=O)C(=O)N[C@H](CC(=O)O)C(=O)N[C@H](Cc3ccc(O)cc3)C(=O)N3CCC[C@@H]3C(=O)N[C@H](CCC(=O)O)C(=O)N[C@H](Cc3c[nH]c4ccccc34)C(=O)N[C@H](CCC(N)=O)C(=O)N[C@H](Cc3c[nH]c4ccccc34)C(=O)N[C@H](CC(C)C)C(=O)N2)C(N)=O)(COCCC(=O)NCCOCCOCCOCCOCCC(=O)NCCCC[C@@H](NC(=O)CNC(=O)[C@@H](CC(C)C)NC(=O)[C@@H](CCC(=O)O)NC(=O)[C@H]2CSSC[C@@H](NC(=O)[C@H]3CCCN3C(=O)[C@@H](Cc3c[nH]cn3)NC(C)=O)C(=O)N[C@H](CC(=O)O)C(=O)N[C@H](Cc3ccc(O)cc3)C(=O)N3CCC[C@@H]3C(=O)N[C@H](CCC(=O)O)C(=O)N[C@H](Cc3c[nH]c4ccccc34)C(=O)N[C@H](CCC(N)=O)C(=O)N[C@H](Cc3c[nH]c4ccccc34)C(=O)N[C@H](CC(C)C)C(=O)N2)C(N)=O)COCCC(=O)NCCOCCOCCOCCOCCC(=O)NCCCC[C@@H](NC(=O)CNC(=O)[C@@H](CC(C)C)NC(=O)[C@@H](CCC(=O)O)NC(=O)[C@H]2CSSC[C@@H](NC(=O)[C@H]3CCCN3C(=O)[C@@H](Cc3c[nH]cn3)NC(C)=O)C(=O)N[C@H](CC(=O)O)C(=O)N[C@H](Cc3ccc(O)cc3)C(=O)N3CCC[C@@H]3C(=O)N[C@H](CCC(=O)O)C(=O)N[C@H](Cc3c[nH]c4ccccc34)C(=O)N[C@H](CCC(N)=O)C(=O)N[C@H](Cc3c[nH]c4ccccc34)C(=O)N[C@H](CC(C)C)C(=O)N2)C(N)=O)C1=O)C(=O)O (stereo partly shown) |  | Sprague Dawley rat | subcutaneous vs intravenous, 1.2 mg/kg | bioavailability | 103%
CCc1c2c(nc3ccc(OC(=O)[C@H]4CC[C@H](CNC(=O)[C@H]5CC[C@H](CN6C(=O)CC(SC[C@H](N)C(=O)N[C@H](C(=O)N[C@@H](CCCCN)C(=O)N[C@@H](CCCNC(=N)N)C(=O)NCC(=O)N[C@@H](CC(C)C)C(=O)N[C@@H](CCCCN)C(=O)N[C@@H](CC(C)C)C(=O)N[C@@H](CCCNC(=N)N)C(=O)N[C@@H](Cc7c[nH]cn7)C(=O)N[C@H](C(=O)N[C@@H](CCCNC(=N)N)C(=O)N7CCC[C@H]7C(=O)N[C@@H](CCCNC(=N)N)C(=O)N[C@H](C(=O)N[C@H](C(=O)N[C@@H](CCCNC(=N)N)C(=O)N[C@@H](CCSC)C(=O)N[C@@H](CC(=O)O)C(=O)N[C@H](C(=O)O)C(C)C)[C@@H](C)O)C(C)C)C(C)C)C(C)C)C6=O)CC5)CC4)cc13)-c1cc3c(c(=O)n1C2)COC(=O)[C@]3(O)CC (stereo partly shown) |  | human, cancer patients | phase I trial | dose with infusion reactions | > 75 mg/m²
melittin | membrane partitioning, ITC enthalpy vs temperature | POPC/POPG LUVs 75:25% | concentration not given, 25 to 60 °C | heat capacity change | -0.56 kcal/mol/K
COc1cccc2c1C(=O)c1c(O)c3c(c(O)c1C2=O)C[C@@](O)(C(=O)CO)C[C@@H]3O[C@H]1C[C@H](NC(=O)[C@H](CC(C)C)NC(=O)[C@H](C)NC(=O)[C@H](CC(C)C)NC(=O)CCNC(=O)CCC(=O)O)[C@H](O)[C@H](C)O1 |  | mouse, E0771 tumour-bearing, liver | intravenous, 92 µmol/kg | Tmax | 15 min
N=C(N)NCCC[C@@H]1NC(=O)[C@H](CCCCNC(=O)[C@H](CC(=O)O)NC(=O)[C@H](CC(=O)O)NC(=O)[C@H](CC(=O)O)NC(=O)CC[C@H](NC(=O)CCOCCOCCOCCOCCNC(=O)c2ccc(NN)nc2)C(=O)N[C@@H](CC(=O)O)C(=O)N[C@@H](CC(=O)O)C(=O)N[C@@H](CC(=O)O)C(=O)NCCCC[C@@H]2NC(=O)[C@@H](Cc3ccccc3)NC(=O)[C@H](CC(=O)O)NC(=O)CNC(=O)[C@H](CCCNC(=N)N)NC2=O)NC(=O)[C@@H](Cc2ccccc2)NC(=O)[C@H](CC(=O)O)NC(=O)CNC1=O [technetium-99m labelled] | γ-counting | female athymic nude mice, U-87 MG xenograft, brain | intravenous, 0.5 h | tissue uptake | 0.25 ± 0.09 %ID/g
COc1cccc2c1C(=O)c1c(O)c3c(c(O)c1C2=O)C[C@@](O)(C(=O)CO)C[C@@H]3O[C@H]1C[C@H](NC(=O)[C@@H]2CCCN2C(=O)CNC(=O)[C@H](CC(C)C)NC(=O)[C@H](C)NC(=O)CP(=O)(O)O)[C@H](O)[C@H](C)O1 |  | mouse, E0771 tumour-bearing, tumor | intravenous, 92 µmol/kg | Tmax | 5 min
N=C(N)NCCC[C@@H]1NC(=O)[C@H](CCCCNC(=O)CNC(=O)CNC(=O)CNC(=O)CC[C@H](NC(=O)CCOCCOCCOCCOCCNC(=O)c2ccc(NN)nc2)C(=O)NCC(=O)NCC(=O)NCC(=O)NCCCC[C@@H]2NC(=O)[C@@H](Cc3ccccc3)NC(=O)[C@H](CC(=O)O)NC(=O)CNC(=O)[C@H](CCCNC(=N)N)NC2=O)NC(=O)[C@@H](Cc2ccccc2)NC(=O)[C@H](CC(=O)O)NC(=O)CNC1=O [technetium-99m labelled] | γ-counting | female athymic nude mice, U-87 MG xenograft, blood | intravenous, 2 h | tissue uptake | 0.19 ± 0.02 %ID/g

Repeated from above:
Substance | test | test system | conditions | quantity | value
N=C(N)NCCC[C@@H]1NC(=O)[C@H](CCCCNC(=O)CCOCCOCCOCCOCCNC(=O)CC[C@H](NC(=O)c2ccc(NN)nc2)C(=O)NCCOCCOCCOCCOCCC(=O)NCCCC[C@@H]2NC(=O)[C@@H](Cc3ccccc3)NC(=O)[C@H](CC(=O)O)NC(=O)CNC(=O)[C@H](CCCNC(=N)N)NC2=O)NC(=O)[C@@H](Cc2ccccc2)NC(=O)[C@H](CC(=O)O)NC(=O)CNC1=O [technetium-99m labelled] |  | athymic nude mouse, U-87 MG xenograft | 60 min | tumour uptake | 8.3 ± 3.57 %ID/g
